Results of several laboratories.
Protocols differ between the studies behind these lines. ± gives the spread as reported.
CHRM2: Muscarinic acetylcholine receptor M2 (CHRM2, Homo sapiens, UniProt P08172)
DRD3: D(3) dopamine receptor (DRD3, Homo sapiens, UniProt P35462)
HTR6: 5-hydroxytryptamine receptor 6 (HTR6, Homo sapiens, UniProt P50406)

SMILES	target	test	test system	setting	Ki [µM]
CCC(=O)NCc1cc(C(=O)NCCN2CCN(CCCCC3CCN(CC(=O)N4c5ccccc5NC(=O)c5ccccc54)CC3)CC2)cc(C(=O)NCCN2CCN(CCOC(=O)C3c4ccccc4Oc4ccccc43)CC2)c1	CHRM2	ligand displacement, radioligand			0.0011
CC(C)(F)CC(NC(c1ccc(-c2ccc(S(C)(=O)=O)cc2)cc1)C(F)(F)F)C(=O)NCC#CBr (stereo not shown)	Cathepsin K (CTSK, Homo sapiens, UniProt P43235)	enzyme activity, inhibitor, fluorescence			0.19
Cc1cccc(NC(=O)CN2CCC(c3ccccc3)CC2)c1	DRD3				0.806 ± 0.145
O[C@@H]1Cc2ccccc2[C@H]1NCc1cn2ccc(Br)cc2n1	DRD3	ligand displacement, radioligand		cell membranes	> 10
Cc1noc(-c2ccc(-n3cnc(C(=O)NCc4cccs4)c3)nc2)n1	Alpha-synuclein, fibril (SNCA, Homo sapiens, UniProt P37840)	ligand displacement, radioligand			> 1
O=C(c1ccc(F)cc1)C1CCN(C2Cc3c(O)cccc3CC2O)CC1 (single isomer, unassigned; (+))	SLC18A3 (Homo sapiens, UniProt Q16572)	ligand displacement, radioligand			0.00527
Nc1ncnc2c(CN3C[C@H](CSC4CCCCC4)[C@@H](O)C3)c[nH]c12	MTA/SAH nucleosidase (Campylobacter jejuni subsp. jejuni, UniProt Z9IB28FKP7)	inhibitor		pH 7.4, 25 °C, added: MTA 1 mM	0.0056 ± 0.0006
CCC(=O)NCc1cc(C(=O)NCCN2CCC(N3CCC(n4c(=O)[nH]c5ccccc54)CC3)CC2)cc(C(=O)NCCN2CCN(CCCCC3CCN(CC(=O)N4c5ccccc5NC(=O)c5ccccc54)CC3)CC2)c1	CHRM2	ligand displacement, radioligand		cell membranes	0.000363
O=[N+]([O-])c1ccccc1CO[C@@H](CO)[C@H](O)C[S@@+]1C[C@@H](O)[C@H](O)[C@H]1CO	GAA (Homo sapiens, UniProt P10253)	enzyme activity, inhibitor, absorbance		pH 5.2	0.17
CCCCc1nc2c([nH]1)[C@H](O)[C@@H](O)[C@H](O)[C@H]2O	sweet almond β-glucosidase	inhibitor		pH 5.2, added: 2,4-dinitrophenyl β-D-glucopyranoside	0.221 ± 0.004
C[C@H](NC(=O)[C@H](CCCNC(=N)N)NC(=O)[C@H](C)NC(=O)C1CC1)C(N)=O	WDR5 (Homo sapiens, UniProt P61964)	ligand displacement, FP			0.11
CCC[C@H]1N[C@H](CO)[C@@H](O)[C@H](O)[C@H]1O	beta-glucosidase (almond)	competitive inhibitor		added: p-nitrophenyl glucopyranoside	> 2000
Cc1cc(CN2CCCC2)ccc1OCCCN1CCN(c2cccc3sccc23)CC1	HTR6	ligand displacement, radioligand			0.464
COc1ccc(C2(O)CCN(CCCCCC3=C4C(C)=CC(C)=[N+]4[B-](F)(F)n4c(C)cc(C)c43)CC2)cc1	Sodium- and chloride-dependent glycine transporter 2 (Homo sapiens, UniProt Q9Y345)	cell-free assay, mass spectrometry			0.398
O=C1Nc2ccccc2N(C(=O)CN2CCC(CCCCN3CCC(OC(=O)C(c4ccccc4)c4ccccc4)CC3)CC2)c2ccccc21	CHRM2	ligand displacement, radioligand			0.00219
CC[C@H](C)[C@H](NC(=O)[C@H](Cc1ccccc1)NC(=O)[C@H](CCC(=O)O)NC(=O)[C@H](CCCN=C(N)N)NC(=O)CNC(=O)[C@H](CO)NC(=O)[C@H](CC(C)C)NC(=O)[C@H](CCCN=C(N)N)NC(=O)[C@@H](NC(=O)CNC(=O)[C@H](Cc1ccc(O)cc1)NC(=O)[C@@H]1CCCN1C(=O)[C@H](C)NC(=O)[C@H](C)NC(=O)[C@@H](N)CCCN=C(N)N)C(C)C)C(=O)N[C@@H](CCCN=C(N)N)C(=O)N[C@@H](C)C(=O)N[C@H](C(=O)N[C@H](C(=O)N[C@@H](Cc1ccccc1)C(=O)N[C@H](C(=O)N[C@@H](CO)C(=O)NCC(=O)NCC(=O)N[C@@H](CO)C(=O)N[C@@H](CCCN=C(N)N)C(=O)N[C@@H](Cc1c[nH]c2ccccc12)C(=O)O)[C@@H](C)O)[C@@H](C)CC)C(C)C	RXFP3 (Homo sapiens, UniProt Q9NSD7)	ligand displacement			1.78
CC[C@H](C)[C@H](NC(=O)[C@H](Cc1ccc(O)cc1)NC(=O)[C@@H]1C[C@@H](O)CN1C(=O)[C@H](C)NC(=O)[C@@H](N)CC(C)C)C(=O)NCC(=O)NCC(=O)N[C@H](CCCNC(=N)N)C(=O)N[C@H](CCCNC(=N)N)C(=O)N[C@H](CCCNC(=N)N)C(=O)N[C@H](CCCNC(=N)N)C(=O)N[C@H](CCCNC(=N)N)C(=O)N[C@H](CCCNC(=N)N)C(=O)N[C@H](CCCNC(=N)N)C(=O)N[C@H](CCCNC(=N)N)C(=O)N[C@H](CCCNC(=N)N)C(=O)O	Von Hippel-Lindau disease tumor suppressor/Elongin B/Elongin C (Homo sapiens, UniProt P40337+Q15369+Q15370)	binding, fluorescence polarization competition		1 h, pH 7.5, added: HIF peptide tracer 12.5 nM	0.026
C#CCOC(=O)[C@]1(C)C=C(C(=O)OC(C)(C)C)C(=O)CC1	MAPK8 (Homo sapiens, UniProt P45983)	ligand displacement, FP			3.4
COc1ccccc1/C=C/C(=O)c1ccccc1	cathepsin L (Capra hircus, UniProt A0A452FFI6)	enzyme activity, competitive inhibitor	goat liver enzyme	pH 6.0, added: Z-Phe-Arg-4-methoxy-β-naphthylamide	0.0062 ± 2e-05
CNC(=O)C1CCN(c2cc(C)c(F)cc2NC(=O)c2ccc(-c3cc(O)ccc3C)c(C)c2)CC1	EPHB4 (Homo sapiens, UniProt P54760)	cell-free assay, TR-FRET			0.0048
CC(=O)N[C@@H](CCC(N)=O)C(=O)N[C@@H](CC(=O)O)C(=O)N[C@H](C(=O)N[C@@H](CCCNC(=N)N)C(=O)N[C@H](C=O)CC(=O)O)[C@@H](C)O	Caspase-9 (CASP9, Homo sapiens, UniProt P55211)	enzyme activity, inhibitor, fluorescence		pH 7	> 100
COc1cc(CN2CCCC2)ccc1OCCN1CCN(c2cccc3sccc23)CC1	HTR6	ligand displacement, radioligand			0.764
CC(=O)NCC(=O)N[C@@H](CC(=O)O)C(=O)N[C@@H](Cc1ccc(O)cc1)C(=O)N[C@@H](CO)C(=O)N[C@@H](Cc1cnc[nH]1)C(=O)N[C@H]1CSSC[C@@H](C(=O)N[C@H](C(=O)N[C@@H](Cc2ccc(O)cc2)C(=O)N2CCC[C@H]2C(=O)N[C@@H](CC(=O)O)C(=O)N2CCC[C@H]2C(=O)N[C@@H](CCC(=O)O)C(=O)NCC(=O)NCC(=O)NCC(N)=O)[C@@H](C)O)NC(=O)[C@H](CCCCN)NC(=O)[C@H](Cc2c[nH]c3ccccc23)NC(=O)[C@H](Cc2c[nH]c3ccccc23)NC(=O)[C@@H]2CCCN2C(=O)[C@H](Cc2ccc(O)cc2)NC(=O)[C@H](Cc2ccc(O)cc2)NC(=O)[C@H](CCCNC(=N)N)NC(=O)[C@H](CC(C)C)NC(=O)[C@@H]2CCCN2C(=O)[C@H](CO)NC1=O	Angiotensin-converting enzyme 2 (Ace2, Mus musculus, UniProt Q8R0I0)	inhibitor			1.2 ± 0.9
O=c1[nH]c(O)nc2c([C@@H]3N[C@H](COP(=O)(O)O)[C@@H](O)[C@H]3O)c[nH]c12	Uncharacterized protein (Trypanosoma cruzi, UniProt Q4DRC3)	IMP formation, uncompetitive inhibitor		pH 8.3, 37 °C, added: hypoxanthine 120 µM, PRPP 1 mM	0.2 ± 0.02
CCCCCCCC/N=C1/SC[C@@H]2[C@@H](O)[C@H](O)[C@@H](O)[C@@H](CCC)N12	beta-glucosidase (almond)	competitive inhibitor		added: p-nitrophenyl glucopyranoside	> 2000

A few entries again:
SMILES	target	test	test system	setting	Ki [µM]
O[C@@H]1Cc2ccccc2[C@H]1NCc1cn2ccc(Br)cc2n1	DRD3	ligand displacement, radioligand		cell membranes	> 10
Cc1noc(-c2ccc(-n3cnc(C(=O)NCc4cccs4)c3)nc2)n1	Alpha-synuclein, fibril (SNCA, Homo sapiens, UniProt P37840)	ligand displacement, radioligand			> 1
